Values quoted from earlier work that unrelated publications cite.
Lines come from different studies, so protocols differ. Several values in a cell are separate wells, animals, samples, runs or records. Numbers after ± are the reported error.
MEP1A: Meprin A subunit alpha (MEP1A, Homo sapiens, UniProt Q16819)
UniProt Q16819, sequence (whole entry, looked up): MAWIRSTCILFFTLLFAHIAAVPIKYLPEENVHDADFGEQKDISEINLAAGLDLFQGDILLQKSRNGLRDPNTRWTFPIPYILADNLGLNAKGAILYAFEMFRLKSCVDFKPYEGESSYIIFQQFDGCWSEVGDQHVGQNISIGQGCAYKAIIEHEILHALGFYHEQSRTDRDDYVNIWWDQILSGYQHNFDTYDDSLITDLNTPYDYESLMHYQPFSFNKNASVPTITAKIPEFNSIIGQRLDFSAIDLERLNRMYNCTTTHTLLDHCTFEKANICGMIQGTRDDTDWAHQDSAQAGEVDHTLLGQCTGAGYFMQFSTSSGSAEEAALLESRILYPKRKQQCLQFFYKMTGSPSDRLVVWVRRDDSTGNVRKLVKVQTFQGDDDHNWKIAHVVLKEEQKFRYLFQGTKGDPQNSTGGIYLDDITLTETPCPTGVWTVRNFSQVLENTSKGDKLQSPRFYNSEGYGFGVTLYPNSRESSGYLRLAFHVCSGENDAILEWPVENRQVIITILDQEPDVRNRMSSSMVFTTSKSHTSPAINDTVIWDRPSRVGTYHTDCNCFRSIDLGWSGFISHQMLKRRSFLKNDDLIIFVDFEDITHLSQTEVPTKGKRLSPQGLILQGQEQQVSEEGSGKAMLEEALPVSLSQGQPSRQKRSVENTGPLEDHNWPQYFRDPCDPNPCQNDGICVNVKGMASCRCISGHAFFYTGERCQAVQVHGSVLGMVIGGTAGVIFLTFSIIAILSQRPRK
BRD4 BD1: Bromodomain-containing protein 4, BD1 (BRD4, Homo sapiens, UniProt O60885)
UniProt P21397, sequence (whole entry, looked up): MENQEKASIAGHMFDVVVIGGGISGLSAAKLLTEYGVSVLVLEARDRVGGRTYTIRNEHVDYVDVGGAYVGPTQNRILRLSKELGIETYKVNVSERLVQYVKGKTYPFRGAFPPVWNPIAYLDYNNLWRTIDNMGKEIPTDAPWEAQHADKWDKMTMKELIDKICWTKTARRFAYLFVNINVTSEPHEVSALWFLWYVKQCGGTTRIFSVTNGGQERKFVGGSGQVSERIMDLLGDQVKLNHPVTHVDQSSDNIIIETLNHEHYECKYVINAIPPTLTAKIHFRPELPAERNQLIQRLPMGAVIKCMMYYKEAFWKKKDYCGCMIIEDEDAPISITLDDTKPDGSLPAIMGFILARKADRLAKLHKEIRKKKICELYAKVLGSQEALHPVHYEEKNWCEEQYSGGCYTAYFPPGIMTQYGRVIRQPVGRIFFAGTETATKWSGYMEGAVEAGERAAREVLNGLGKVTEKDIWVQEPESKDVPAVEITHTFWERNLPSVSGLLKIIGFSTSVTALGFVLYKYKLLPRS
UniProt O14757, sequence (whole entry, looked up): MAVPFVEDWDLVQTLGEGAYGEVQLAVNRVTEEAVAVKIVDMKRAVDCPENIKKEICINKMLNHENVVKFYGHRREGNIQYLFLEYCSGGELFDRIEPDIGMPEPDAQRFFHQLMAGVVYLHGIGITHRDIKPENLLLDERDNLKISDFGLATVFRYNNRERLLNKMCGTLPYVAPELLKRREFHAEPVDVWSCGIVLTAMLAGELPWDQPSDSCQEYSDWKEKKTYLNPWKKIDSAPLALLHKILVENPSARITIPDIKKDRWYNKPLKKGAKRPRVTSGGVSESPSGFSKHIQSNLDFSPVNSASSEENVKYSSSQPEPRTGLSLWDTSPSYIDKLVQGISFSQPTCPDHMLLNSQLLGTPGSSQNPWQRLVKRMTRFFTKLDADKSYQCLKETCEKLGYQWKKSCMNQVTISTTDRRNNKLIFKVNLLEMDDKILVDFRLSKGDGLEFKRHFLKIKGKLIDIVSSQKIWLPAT
UniProt O43318, sequence (whole entry, looked up): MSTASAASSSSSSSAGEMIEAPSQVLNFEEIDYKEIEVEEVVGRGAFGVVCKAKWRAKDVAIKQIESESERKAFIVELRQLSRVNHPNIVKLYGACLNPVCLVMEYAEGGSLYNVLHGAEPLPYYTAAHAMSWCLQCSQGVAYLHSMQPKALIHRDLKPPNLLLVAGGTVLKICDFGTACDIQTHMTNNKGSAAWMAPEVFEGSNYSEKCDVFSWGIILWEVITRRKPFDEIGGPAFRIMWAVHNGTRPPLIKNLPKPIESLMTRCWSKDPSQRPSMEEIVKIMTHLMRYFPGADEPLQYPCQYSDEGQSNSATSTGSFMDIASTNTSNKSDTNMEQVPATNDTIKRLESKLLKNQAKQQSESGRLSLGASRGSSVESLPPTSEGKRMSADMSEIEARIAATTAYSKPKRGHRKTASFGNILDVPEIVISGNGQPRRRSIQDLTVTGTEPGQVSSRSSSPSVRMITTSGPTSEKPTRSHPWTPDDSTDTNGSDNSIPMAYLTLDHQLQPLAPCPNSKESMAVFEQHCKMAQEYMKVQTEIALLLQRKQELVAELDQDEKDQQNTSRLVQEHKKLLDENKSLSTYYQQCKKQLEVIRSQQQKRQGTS
UniProt P18405, sequence (whole entry, looked up): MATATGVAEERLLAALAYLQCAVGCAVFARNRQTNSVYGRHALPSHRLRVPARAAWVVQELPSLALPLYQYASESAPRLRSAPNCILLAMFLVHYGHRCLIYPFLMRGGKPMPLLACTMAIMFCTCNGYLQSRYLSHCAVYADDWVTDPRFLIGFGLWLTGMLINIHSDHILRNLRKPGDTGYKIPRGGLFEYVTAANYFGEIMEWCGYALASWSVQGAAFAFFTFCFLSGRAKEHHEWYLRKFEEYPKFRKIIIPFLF
UniProt P31941, sequence (whole entry, looked up): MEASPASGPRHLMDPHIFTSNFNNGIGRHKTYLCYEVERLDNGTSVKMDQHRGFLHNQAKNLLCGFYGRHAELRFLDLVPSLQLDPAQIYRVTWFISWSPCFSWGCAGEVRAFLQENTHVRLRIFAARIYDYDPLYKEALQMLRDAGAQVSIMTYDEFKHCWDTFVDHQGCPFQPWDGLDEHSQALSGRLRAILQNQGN
UniProt P06493, sequence (whole entry, looked up): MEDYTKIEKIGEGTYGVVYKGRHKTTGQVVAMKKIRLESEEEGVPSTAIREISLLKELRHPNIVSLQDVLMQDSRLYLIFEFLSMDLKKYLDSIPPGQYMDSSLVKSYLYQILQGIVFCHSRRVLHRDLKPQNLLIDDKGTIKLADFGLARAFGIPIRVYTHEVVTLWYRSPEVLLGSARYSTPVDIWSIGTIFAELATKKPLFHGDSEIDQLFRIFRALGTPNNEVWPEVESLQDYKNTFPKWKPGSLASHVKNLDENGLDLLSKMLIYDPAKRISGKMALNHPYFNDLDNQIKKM
UniProt P21554, sequence (whole entry, looked up): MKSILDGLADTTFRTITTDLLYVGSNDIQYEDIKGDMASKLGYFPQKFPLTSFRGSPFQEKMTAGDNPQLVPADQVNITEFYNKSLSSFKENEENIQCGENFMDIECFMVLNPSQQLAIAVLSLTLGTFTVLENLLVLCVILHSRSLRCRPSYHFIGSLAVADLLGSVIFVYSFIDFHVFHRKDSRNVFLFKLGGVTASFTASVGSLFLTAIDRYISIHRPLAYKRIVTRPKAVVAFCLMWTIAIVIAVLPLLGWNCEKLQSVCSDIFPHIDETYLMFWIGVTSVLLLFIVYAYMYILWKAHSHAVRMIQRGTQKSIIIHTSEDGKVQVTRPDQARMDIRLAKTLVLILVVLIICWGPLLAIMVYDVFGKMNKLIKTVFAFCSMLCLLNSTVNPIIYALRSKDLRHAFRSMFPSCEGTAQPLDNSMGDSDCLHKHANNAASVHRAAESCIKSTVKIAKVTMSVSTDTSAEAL

`CC(C)c1ccc(CN2CCN(CC(=O)c3ccc4[nH]c(=O)[nH]c4c3)CC2)cc1` gave an IC50 of 9000 nM (DNA dC->dU-editing enzyme APOBEC-3A (Homo sapiens, UniProt P31941)).
For `O=C(/C=C/c1ccc(O)cc1)OCC(=O)Oc1ccc2ccc(=O)oc2c1`, the IC50 was 124000 nM (tyrosinase; enzyme activity, inhibitor).
The IC50 of `Oc1ccc(-c2csc(N/N=C3/c4ccccc4-c4nc5ccccc5nc43)n2)cc1` is reported as 1440 ± 80 nM (α-glucosidase).
With `COc1ccc(O)c(C(=O)OCC(C)(C)CC2=C(O)C(=O)c3ccccc3C2=O)c1` the IC50 was greater than 200 µg/mL (alpha-glucosidase; inhibitor).
`Oc1c(C(c2ccccc2)c2c[nH]c3ccccc23)cc(Cl)c2cccnc12` (centres unmarked) gave an IC50 of 2490 nM and 2630 nM (COLO 205; cytotoxicity).
`Cc1cc2c(c(O)c1O)C(=O)c1c(O)cc(O)cc1C2=O` gave an IC50 of 5350 ± 90 nM (MAOA (Homo sapiens, UniProt P21397)).
`O=C(N/N=C/c1cc(O)c(O)cc1O)c1ccc(-c2nnc(-c3ccc4ncccc4c3)o2)cc1` gave an IC50 of 2600 ± 10 nM (α-glucosidase; inhibitor).
`N#Cc1cnc(NC(=O)Nc2cc(Cl)ccc2OC2CCOC2)cn1` (centres unmarked) gave an IC50 of 3 nM (CHEK1 (Homo sapiens, UniProt O14757); inhibitor).
With `O=C(CCN(Cc1ccc2c(c1)OCO2)Cc1ccc2c(c1)OCO2)NO` the IC50 was 157 ± 1 nM (MEP1A; enzyme activity, inhibitor).
With `COc1ccc(C(C)=O)c(OC(=O)/C=C/c2ccc(O)cc2)c1` the IC50 was 2000 nM (tyrosinase; inhibitor).
With `Oc1ccc(Cl)cc1/C=N\Nc1nc(-c2ccc(F)cc2)cs1` the IC50 was 5140 ± 30 nM (alpha-amylase; enzyme activity, inhibitor).
The IC50 of `CNc1nc(-c2nn(C)c(C)c2Oc2ccccc2)cn2c(C)nnc12` is reported as 1 nM (BRD4 BD1; biochemical; bromodomain 1).
Under “tumour to tissue ratio”, `COc1ccc(Nc2nc(Nc3ccc(OCC[18F])cc3)ncc2Br)cc1` is recorded as 1.64 (S180 tumour-bearing mice; intravenous, 60 min; relative to: tumour over muscle).
The inhibition of `O=c1ccc(OCCCN2CCCCC2)nn1-c1ccc(Cl)c(Cl)c1` is reported as 19.3 ± 2.4% (CNR1 (Homo sapiens, UniProt P21554); 1.0 µM).
The IC50 of `CC(=O)Cc1cc(-c2c(C)noc2C)cc(C(O)c2ccccc2)c1` (centres unmarked) is reported as 371 nM (BRD4 BD1; biochemical; bromodomain 1).
`O=C(CCN(Cc1cccc(C(=O)O)c1)Cc1cccc(C(=O)O)c1)NO` gave an IC50 of 5030 ± 57 nM (MEP1A; enzyme activity, inhibitor).
The IC50 of `CCCc1nc2c(-c3ccc(Cl)cc3)nc3ccccc3c2c(=O)n1CC(=O)O` is reported as 190 ± 30 nM (aldose reductase AKR1B1).
`COc1cc(O)c2c(c1)C1OC1CC(O)C(O)C(=O)CCCC(C)OC2=O` (centres unmarked) has an IC50 of greater than 30000 nM (MAP3K7 (Homo sapiens, UniProt O43318); enzyme activity, inhibitor).
`Cc1cc(N=Nc2ccc3c(c2)CCC(=O)N3)c(N)cc1O` has an IC50 of 27 nM (BRD4 BD1; biochemical; bromodomain 1).
`O=C(N/N=C/c1ccccc1F)c1ccc2ncccc2c1` has an IC50 of 7400 ± 200 nM (α-glucosidase; inhibitor).
With `Oc1c(Cc2c[nH]c3ncccc23)cc(Cl)c2cccnc12` the IC50 was 38800 nM (COLO 205; cell viability).
With `CC1C(=O)N(C)c2ccc(-c3ccc(Nc4cccc(S(=O)(=O)N(C)C)c4)cc3)nc2N1C1CCN(C)CC1` (centres unmarked) the IC50 was less than 50 nM (Bromodomain-containing protein 4, BD2 (BRD4, Homo sapiens, UniProt O60885); biochemical; bromodomain 2).
`CC(=O)c1sc(N/N=C2/c3ccccc3-c3nc4cc(F)ccc4nc32)nc1C` has an IC50 of 17600 ± 740 nM (alpha-amylase; enzyme activity, inhibitor).
With `Cc1onc(-c2ccc(F)cc2)c1C(=O)N[C@H](C(=O)Nc1cccc(C(N)=O)c1)c1ccc(OCc2ccccc2)cc1` the IC50 was 14000 nM (Genome polyprotein, NS2B-NS3 protease (dengue virus type 2, UniProt P29990); protease activity, inhibitor; together with: substrate 50 µM).
With `COc1cc2onc(C)c2cc1NS(=O)(=O)c1cc(Br)ccc1OC` the IC50 was 82 nM (BRD4 BD1; biochemical; bromodomain 1).
The IC50 of `O=C(CCN(Cc1ccc(Cl)c(O)c1F)Cc1ccc(Cl)c(O)c1F)NO` is reported as 186 ± 1 nM (MEP1A; enzyme activity, inhibitor).
The IC50 of `Nc1nc(Nc2ccc(S(N)(=O)=O)cc2)nn1C(=O)c1cccs1` is reported as 2.1 nM (CDK1 (Homo sapiens, UniProt P06493); enzyme activity, inhibitor).
`CCn1c2c(c(=O)[nH]c1=O)C(c1ccccc1)C1=C(CN(CCc3ccc(O)cc3)C1=O)N2` (centres unmarked) has an IC50 of 410 nM (BRD4 BD1; biochemical; bromodomain 1).
`O=C(/C=C/c1ccc(O)c(O)c1)Nc1cc(C(F)(F)F)cc(C(F)(F)F)c1` gave an IC50 of 1440 nM (SRD5A1 (Homo sapiens, UniProt P18405); enzyme activity, inhibitor, HPTLC; HaCaT).

Excerpt of the above:
The IC50 of `CNc1nc(-c2nn(C)c(C)c2Oc2ccccc2)cn2c(C)nnc12` is reported as 1 nM (BRD4 BD1; biochemical; bromodomain 1).
`Cc1cc2c(c(O)c1O)C(=O)c1c(O)cc(O)cc1C2=O` gave an IC50 of 5350 ± 90 nM (MAOA (Homo sapiens, UniProt P21397)).
